Published values gathered from unrelated publications.
A part holds a random share of what one study measured. Positions count from the first letter of the parent shown.

Study 1
Target: RNA binding protein fox-1 homolog 2, RRM domain, GST-SBP tag (RBFOX2, Homo sapiens, UniProt O43251-10, residues 100-194)
Method: RNA Bind-n-Seq
Form: RNA
Matrix: in vitro
Concentration: 365 nM
Setting: natural RNA segment, single round, ends assumed
Reference: no-protein control
Direction: higher = stronger binding
Constant ends, left off below: GGGAGUUCUACAGUCCGACGAUC … UGGAAUUCUCGGGUGCCAA
Residues (chain): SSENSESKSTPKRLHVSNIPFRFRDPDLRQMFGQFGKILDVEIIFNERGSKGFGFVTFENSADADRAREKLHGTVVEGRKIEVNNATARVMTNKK
| Oligonucleotide | RBNS enrichment (R) |
| --- | --- |
| GCUGUUCCAGCUUUGCAUUUCUGUCAAGUAGAGGCGAAUAUAUAAACAGUGUGGUUGAAUACAUUUAAUGCCAGCCAUUGGAAACUAGUUUUAGGCAACCACUCUCAAAA | 0.28 |
| CCCCUCAGUUUCCCCACACCCACUGUUGGCUGGAAGUGCUUCCAUUACCACUGUCAGAUUGGAAGUGACCGAAGCAGGGGAUGAAGAGAAAGCUCACAUUCUAAGUAGAG | 0.322 |
| GACAUUGUCUUGGAGAACACUUGGCUCGGAUGGAAAUGUUCUUGUUUUUUACAGCAUUGCUUCAGAGGUUUCAUUUGCAUUUUCCACAUGAACUAGUUCCAGAUCUGAAG | 0.557 |
| UGAAUCCAUUUUUAUAGAAUUUUUUUCCACUGUAACUUGACCUAUAUUAUGCAAGAAAAUCCCAAAAAUAUGUUUUAAGGGAGACUACACAGACCUUGUGAUUUGGUCUG | 0.754 |
| GGAUGAGAGAAGCCAGAGCAAGCAGCUCCCCCACCCUCGGCACAUCCCACCUCCCUCGCUCGCUAGUCUCGGCCGGACUUGGAAGACACUGAGAAUGUCCCCCCCAAUGG | 0.395 |
| UUAAUAUUGCUGUGAACAGUGGUGCCCAUUGUAGCAUAUGUUUGAUUUUUUUUUAUUAUUUCAUAAGAAAACUACGUUAAUUUUACCUUACUUUCAUUGUAAAUAAGCCU | 0.822 |
| CGCUAUCUGUUCCCUCACACAGUCGCUAAGUGGUCAAAUUGGUGCUUGAAAUUCAUUGGUCUAGUUGUAAUUUUUAUACAAAUUACACCAAGAGAUAAGAUGUCUUUUUU | 0.593 |
| UAGUCCCAAGCACAUAAACUAGGAAGAGAAUGUAUUUGUAGGAGCGCUACCACCUGUUUUCAAGAGAACAUAGAACUCCAACGUAACCGUCAUUUCAAAGAUUUACUGUA | 0.543 |
| ACAAAGGCCUUCAUGGGAAGCUUGCACGAGCAUCUCAAGGUGGCUGGGCAUAGCAGAGUUCAACGAGGUUUCUACAGAAAAGUGCAAUCUUUGUUGUUUUUGUAUUUAUU | 0.526 |
| AGUCUGGCCAGUGCCAAGAGACAACAUAACAUGGCAGGUGGAUGGUGUCGGUGUCAUUGUCUCAGCUCAAAGAGCCACCUGCUUCAGAUACCAUGGGCAUGUGCUGAGUG | 0.704 |
| ACAUAUGAAAAGUGAAAGUUGUGAGUUGUUUUCCUCUUAUUUAAACAUUGGCCUAUUAUAAUCUGUGUUGGUUAUUUUUCUCCUGUAAGCAUCCUGAUUUUUCUGUAGGA | 0.92 |
| CACCUCUUCUCUUCCUGCCCGGCUCUGCUUCUGUGUCUUGAUGUCAGCUCACACAAUUCCAAAGGAAACUGGCCUUGCUGAGGGUGCUGCCUGCCUGCGAGGCACCUGCC | 2.08 |

Study 2
Target: Interferon regulatory factor 3, full length, phosphomimetic (IRF3, Homo sapiens, UniProt Q14653, residues 1-427, S386D/S396D/S398D/S402D/T404D/S405D)
Chain of UniProt Q14653 (whole entry, unmodified, looked up): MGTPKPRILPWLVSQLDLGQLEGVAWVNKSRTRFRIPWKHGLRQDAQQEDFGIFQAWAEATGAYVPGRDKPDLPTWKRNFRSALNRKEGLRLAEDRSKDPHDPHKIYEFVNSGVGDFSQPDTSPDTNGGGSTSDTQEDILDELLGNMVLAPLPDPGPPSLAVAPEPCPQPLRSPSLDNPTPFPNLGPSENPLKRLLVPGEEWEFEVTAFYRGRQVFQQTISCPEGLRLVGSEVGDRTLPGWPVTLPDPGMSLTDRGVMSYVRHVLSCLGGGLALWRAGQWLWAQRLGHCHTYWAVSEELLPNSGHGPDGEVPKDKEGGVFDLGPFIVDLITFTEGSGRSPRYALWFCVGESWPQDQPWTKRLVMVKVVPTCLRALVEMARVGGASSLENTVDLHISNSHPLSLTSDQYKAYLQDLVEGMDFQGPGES
Method: protein-binding microarray
Form: double-stranded DNA, one strand shown
Matrix: in vitro
Concentration: 2540 nM top
Setting: 60-bp whole probe
Together with: salmon DNA 0.4 mg/ml
Reference: random background probes
Direction: higher = stronger binding
Constant ends, left off below: GCCTAGCAC … GTCTTGATTCGCTTGACGCTGCTG
| Oligonucleotide | fitted relative affinity |
| --- | --- |
| TGAGAACTGAGTCTCGATTAGTGCTAG | -0.463 z-score |
| TCATAAATCTTTGTTGGAACTGTGCTA | -0.0839 z-score |
| CCGCCGCCTGGCTGGGGGATGTGCTAG | -1.07 z-score |
| GACGGTATTGACTTTCGGGACGTGCTA | 0.537 z-score |
| GACGGTTTTGACTTTCGGGACGTGCTA | 1.65 z-score |
| GACGAACTGAATCTCGAGACGTGCTAG | 0.177 z-score |
| GACGGTAGCGACACTGGGGACGTGCTA | -0.746 z-score |
| GACGATATCGGTACTGGAGACGTGCTA | 0.888 z-score |
| TCATTAATGCTTCTGGAACTGTGCTAG | -0.0404 z-score |
| GACGAGCTCAGTATCGAGACGTGCTAG | 0.218 z-score |
| GACGGTTTCGGACTGGGGACGTGCTAG | 4.48 z-score |
| GACGGACTGGACTAGCGGGACGTGCTA | -0.682 z-score |
| CCCAGTCTCATATTTATTAGGTGCTAG | 1.76 z-score |
| TCAGACATCTTCATCAAACTGTGCTAG | -0.0691 z-score |
| TCATGTCTGGATGTGCCACTGTGCTAG | -0.132 z-score |
| TCTCCTTTCGGAATACCCTCGTGCTAG | 5.23 z-score |
| TGGGCACACTTTGGGTCCTGGTGCTAG | -0.766 z-score |
| GACGGTATCGACTTGCGGGACGTGCTA | 0.731 z-score |
| TCAGCTTTCTTTACCACACTGTGCTAG | 1.48 z-score |
| GACGAACTGGACTTTCGGGACGTGCTA | 0.315 z-score |
| TTAGGTTTCGACTATTGGTTAGTGCTA | 2.09 z-score |
| ATGTTTTTCATTTTGTTCATGTGCTAG | 2.74 z-score |
| TTAGGACTGGACTTTCGCTTAGTGCTA | 0.0217 z-score |

Study 3
Target: Max dimerization protein 1, bHLH-zipper, MAX partner unstated (MXD1, Homo sapiens, UniProt Q05195, residues 56-136)
Method: protein-binding microarray
Form: double-stranded DNA, one strand shown
Matrix: in vitro
Concentration: not given
Setting: k-mer, scored over probes, only values ≥0.25
Direction: higher = stronger binding
Construct (chain): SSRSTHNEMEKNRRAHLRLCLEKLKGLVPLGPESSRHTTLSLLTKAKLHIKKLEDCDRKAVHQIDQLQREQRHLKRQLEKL
| Oligonucleotide | E-score |
| --- | --- |
| CACGATGA | 0.324 |
| ATATGTGG | 0.274 |
| CCACGTGG | 0.497 |
| CCTCGCAC | 0.306 |
| CGCGTGAC | 0.384 |
| CCCCTCTC | 0.254 |
| AATGCGTG | 0.307 |
| CAAGGGGC | 0.265 |
| CTGCCCCC | 0.26 |
| AATCACGC | 0.337 |
| ACATGCCC | 0.364 |
| ACACGTGA | 0.479 |
| AAGGCATG | 0.35 |
| CGTGAGAG | 0.262 |
| CAACCATG | 0.313 |

Study 4
Target: CCNA2, cyclin fold, Cln2 fusion (human)
Method: yeast growth competition, sequencing
Matrix: yeast
Setting: strong parent motif
Reference: not given
Direction: higher = stronger binding
Starting sequence: WEE1 docking peptide (human); HKTFRKLRLFDTP
| Substitution | normalised enrichment score |
| --- | --- |
| HKTFRKLRGFDTP [L9G] | 1.37 |
| HKTFRKLRLFDTW [P13W] | 1 |
| HKTDRKLRLFDTP [F4D] | 0.626 |
| HKTFRRLRLFDTP [K6R] | 1.69 |
| HKTFRKLRLFDTM [P13M] | 2.68 |
| HKTFRKLRLFQTP [D11Q] | 3.2 |
| HKTFRKLRHFDTP [L9H] | 0.293 |
| HKTFRVLRLFDTP [K6V] | 1.33 |
| HKTFRKSRLFDTP [L7S] | 0.289 |
| HKTFRKLRLFDTT [P13T] | 2.66 |
| HKTFRKLRLFDDP [T12D] | 2.55 |
| HKNFRKLRLFDTP [T3N] | 0.936 |
| PKTFRKLRLFDTP [H1P] | 1.26 |
| HKLFRKLRLFDTP [T3L] | 1.68 |
| HKTFRKLRLFFTP [D11F] | 1.46 |
| HKTFRKFRLFDTP [L7F] | 0.803 |
| HKTFRKLRLWDTP [F10W] | 1.68 |
| HKTFRKLRLHDTP [F10H] | 0.394 |

Some of these lines once more (study 4):
| Substitution | normalised enrichment score |
| --- | --- |
| HKTFRKLRGFDTP [L9G] | 1.37 |
| HKLFRKLRLFDTP [T3L] | 1.68 |
| HKTFRKLRLFFTP [D11F] | 1.46 |
| HKTFRKLRLFDTM [P13M] | 2.68 |
| HKTFRKLRLFDTW [P13W] | 1 |
| HKTFRKSRLFDTP [L7S] | 0.289 |
| HKTFRRLRLFDTP [K6R] | 1.69 |
| HKNFRKLRLFDTP [T3N] | 0.936 |
| HKTFRKFRLFDTP [L7F] | 0.803 |
| PKTFRKLRLFDTP [H1P] | 1.26 |
